Assay results of several laboratories.
Lines come from different studies, so protocols differ.
Technique: steady-state kinetics
B1: aspC A106G/A17N/A218G/A278L/A281T/A8Q/D18E/F210I/F212I/F350Y/G15S/G249S/I187A/I279A/I29V/I33V/I341V/I5L/I68L/I71L/L46M/M321L/M380L/N285S/N30D/N64T/S129T/S135A/S273G/S351L/T100S/V125I/V136I/V375I/Y244C (Escherichia coli, UniProt P00509); chain MFENLTAQPADPILSLNELFRADERPGKVDLGVGVYKDETGKTPVMTSVKKAEQYLLENETTKTYLGLDGLPEFGRCTQELLFGKGSALINDKRARTAQSPGGTGGLRVAADFLAKNTSVKRVWISNPTWPNHKAIFNSAGLEVREYAYYDAENHTLDFDALINSLNEAQAGDVVLFHGCCHNPTGADPTLEQWQTLAQLSVEKGWLPLIDIAYQGFGRGLEEDAEGLRAFAAMHKELIVASSCSKNFSLYNERVGACTLVAADSETVDRAFGQMKALARTNYSSPPAHGASVVATILSNDALRAIWEQELTDMRQRIQRLRQLFVNTLQEKGANRDFSFVIKQNGMFSYLGLTKEQVLRLREEFGVYAVASGRINVAGLTPDNMAPLCEAIVAVL
B2: bxlB (Aspergillus nidulans, UniProt Q5ATH9); chain NYPDCTTGPLSELPICDTSLSPLERAKSLVSALTLEEKINNTGHEAAGSSRLGLPAYNWWNEALHGVAEKHGVSFEESGDFSYATSFPAPIVLGAAFNDALIRRVAEIISTEARAFSNSDHAGIDYWTPNVNPFKDPRWGRGQETPGEDPLHCSRYVKEFVGGLQGDDPEKPKVVATCKHLAAYDLEEWGGVSRFEFDAKVSAVDLLEYYLPPFKTCAVDASVGAFMCSYNALNGVPACADRYLLQTVLREHWGWEGPGHWVTGDCGAVERIQTYHHYVESGPEAAAAALNAGVDLDCGTWLPSYLGEAERQGLISNETLDAALTRLYTSLVQLGYFDPAEGQPLRSLGWDDVATSEAEELAKTVAIQGTVLLKNIDWTLPLKANGTLALIGPFINFTTELQSNYAGPAKHIPTMIEAAERLGYNVLTAPGTEVNSTSTDGFDDALAIAAEADALIFFGGIDNTVEEESLDRTRIDWPGNQEELILELAELGRPLTVVQFGGGQVDDSALLASAGVGAIVWAGYPSQAGGAGVFDVLTGKAAPAGRLPITQYPKSYVDEVPMTDMNLQPGTDNPGRTYRWYEDAVLPFGFGLHYTTFNVSWAKKAFGPYDAATLARGKNPSSNIVDTFSLAVTNTGDVASDYVALVFASAPELGAQPAPIKTLVGYSRASLIKPGETRKVDVEVTVAPLTRATEDGRVVLYPGEYTLLVDVNDEYPTAKFEIKGDVQVLEKFPLSGNDSD
B3: bjaI (Bradyrhizobium diazoefficiens, UniProt Q89VI2); chain MIHAISAVNRHLYEDVLEQHFRLRHDIFVEERHWETLRRPDGREVDSYDDEDTVYLLALEGRRVVGGHRLYPTTKPSMMSEVFPHLAAVRGCPSDPLIWEWSRYFVVRDRRDGALNLQLMAAVQEFCLDQGIAQVSAIMETWWLPRFHEAGFVVTPLGLPALVENAWTMAATVDIRRQTLDVLHDRIGMPSIVQQDGPRLDAVARANLCGLAAAQRKSA
B4: enzyme (Staphylococcus aureus, UniProt Q2G294); chain MKVEVYKGAQGKHNLKDYEETYNTFDWKDVEQAFSWSETGKMNMAYECIDRHVDQGLGDKIALNYKDEHRKESYTYKDMQRLSNKAANVLSEHAEVDKGDRVFIFMSRTPELYFALLGVLKIGAIVGPLFEAFMEKAVADRLENSEAKVLITNKALLPRVPVDKLPNLKKIVVVDEDVEDNYIDFISLMETASDEFDIEWLKSDDGLILHYTSGSTGQPKGVLHVQQAMLVHYISGKYVLDLQEDDVYWCTADPGWVTGTSYGIFAPWLNGATNCIAGGRFSPEQWYSMIEDFKVTIWYTAPTALRMLMSAGDDIVEKYDLSSLRSILSVGEPLNPEVIKWAKKVYGLTVLDTWWMTETGGHMIVNYPTMDVKLGSMGKPLPGIQAAIIDDAGNELPPNRMGNLAIKKGWPSMMYRIWKNPEKYKSYFIGDWYVSGDSAYKDEDGYFWFQGRVDDVIMTAGERVGPFEVESKLVEHEAVAEAGIIGKPDPVRGEIIKAFVALRKGYEPTDELKEEIRIFVKEGLSAHAAPREIEFKDKLPKTRSGKIMRRVLKAWELNLDAGDLSTME
B5: enzyme (Thermotoga maritima, UniProt Q9WXS3); chain MRLNRETIKDRAAWEKIGVRPPYFDLDEVEKNTKEQPKWVHFGGGNIFRGFVAAVLQNLLEEGKEDTGINVIELFDYEVIDKVYKPYDNLSIAVTIKPDGDFEKRIIASVMEALKGDPSHPDWERAKEIFRNPSLQLASLTITEKGYNIEDQAGNLFPQVMEDMKNGPVSPQTSMGKVAALLYERFKAGRLPIALLSLDNFSRNGEKLYSSVKRISEEWVKSGLVEKDFIDYLEKDVAFPWSMIDKIVPGPSEFIKEHLEKLGIEGMEIFVTSKRTHIAPFVNMEWAQYLVIEDSFPNGRPKLEGADRNVFLTDRETVEKAERMKVTTCLNPLHTALAIFGCLLGYKKIADEMKDPLLKKLVEGVGEEGIKVVVDPGIINPREFLNEVINIRLPNPYLPDTPQRIATDTSQKMPIRFGETIKAYHERPDLDPRNLKYIPLVIAGWCRYLMGIDDEGREMQLSPDPLLENLRSYVSKIKFGDPESTDDHLKPILSSQQLFRVNLYEVGLGEKIEELFKKMITGPRAVRKTLEEVVGREDG
B6: enzyme (Oenococcus oeni, UniProt Q04HQ8); chain MELIKNYFFDEGAYDYHDGAYKHLIRPKTKTHKLIIPKVLKADKIEGNTTYYTIHAQEGETNILDGKATHTWGYNGSLLGPLIRYQSGRHYHLTLVNDLPEVTTWHWHGLNIPGPIEDGGPHAPVLPGKSREIEFDVNQPTMTAWLHPHPCPHTAEQVWKGLAAPVAVVNPLDDLPQLPHTWGVDDIPLIFQDRTFHDSQWDYQADYDMDGTLGDTALVNGTVNAEFTVTRPCLRLRVLNGANRRELRLNSDQNIVMTQIASDGGFLPHAVEMTKIMLTNAERAEILLDFSDYKKGGRIVLKADDVPILTLKVGEFTEDNRRQLPKTLKQIERDFTGSPSHQVIMEGMDDSVRINGKLYDMTRIDDRQEIGKNEIWDVSNTNDSMPGMGMIHPFHMHGTEFLVLSRNGKKPYPNEFGFKDTVAVNPGEHVKLLVKFNVPGIFMYHCHILEHEDTGMMAQIEAVDPNNPQHWNLKDLCDKNMPDSNMRM
B7: UGT1A3 (Homo sapiens, UniProt P35503); chain GKVLVVPIDGSHWLSMREVLRELHARGHQAVVLTPEVNMHIKEENFFTLTTYAISWTQDEFDRHVLGHTQLYFETEHFLKKFFRSMAMLNNMSLVYHRSCVELLHNEALIRHLNATSFDVVLTDPVNLCAAVLAKYLSIPTVFFLRNIPCDLDFKGTQCPNPSSYIPRLLTTNSDHMTFMQRVKNMLYPLALSYICHAFSAPYASLASELFQREVSVVDILSHASVWLFRGDFVMDYPRPIMPNMVFIGGINCANRKPLSQEFEAYINASGEHGIVVFSLGSMVSEIPEKKAMAIADALGKIPQTVLWRYTGTRPSNLANNTILVKWLPQNDLLGHPMTRAFITHAGSHGVYESICNGVPMVMMPLFGDQMDNAKRMETKGAGVTLNVLEMTSEDLENALKAVINDKSYKENIMRLSSLHKDRPVEPLDLAVFWVEFVMRHKGAPHLRPAAHDLTWYQYHSLDVIGFLLAVVLTVAFITFKCCAYGYRKCLGKKGRVKKAHKSKTH
B8: enzyme (Mus musculus, UniProt P60334); chain MERTELLKPRTLADLIRILHELFAGDEVNVEEVQAVLEAYESNPAEWALYAKFDQYRYTRNLVDQGNGKFNLMILCWGEGHGSSIHDHTDSHCFLKLLQGNLKETLFDWPDKKSNEMIKKSERTLRENQCAYINDSIGLHRVENVSHTEPAVSLHLYSPPFDTCHAFDQRTGHKNKVTMTFHSKFGIRTPFTTSGSLENN
Sequence of UniProt P77488 (whole entry, looked up): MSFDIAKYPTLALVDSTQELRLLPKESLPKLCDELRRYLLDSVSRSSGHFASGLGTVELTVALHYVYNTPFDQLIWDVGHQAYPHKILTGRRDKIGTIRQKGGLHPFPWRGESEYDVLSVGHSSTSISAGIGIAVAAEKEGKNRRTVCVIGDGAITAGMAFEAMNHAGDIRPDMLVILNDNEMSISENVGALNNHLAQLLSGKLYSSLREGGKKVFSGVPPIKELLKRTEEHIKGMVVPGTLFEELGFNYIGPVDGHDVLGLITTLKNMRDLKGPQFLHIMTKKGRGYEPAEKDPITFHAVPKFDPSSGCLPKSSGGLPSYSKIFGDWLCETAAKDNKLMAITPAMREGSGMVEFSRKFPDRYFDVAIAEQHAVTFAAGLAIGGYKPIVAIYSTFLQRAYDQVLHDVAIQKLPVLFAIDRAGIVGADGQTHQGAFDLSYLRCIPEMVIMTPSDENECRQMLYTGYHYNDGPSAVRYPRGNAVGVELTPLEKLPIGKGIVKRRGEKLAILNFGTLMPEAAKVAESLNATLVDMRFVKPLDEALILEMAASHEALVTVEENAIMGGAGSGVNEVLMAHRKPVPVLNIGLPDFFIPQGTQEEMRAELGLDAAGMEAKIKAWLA
Sequence of UniProt Q9LJK1 (whole entry, unmodified, looked up): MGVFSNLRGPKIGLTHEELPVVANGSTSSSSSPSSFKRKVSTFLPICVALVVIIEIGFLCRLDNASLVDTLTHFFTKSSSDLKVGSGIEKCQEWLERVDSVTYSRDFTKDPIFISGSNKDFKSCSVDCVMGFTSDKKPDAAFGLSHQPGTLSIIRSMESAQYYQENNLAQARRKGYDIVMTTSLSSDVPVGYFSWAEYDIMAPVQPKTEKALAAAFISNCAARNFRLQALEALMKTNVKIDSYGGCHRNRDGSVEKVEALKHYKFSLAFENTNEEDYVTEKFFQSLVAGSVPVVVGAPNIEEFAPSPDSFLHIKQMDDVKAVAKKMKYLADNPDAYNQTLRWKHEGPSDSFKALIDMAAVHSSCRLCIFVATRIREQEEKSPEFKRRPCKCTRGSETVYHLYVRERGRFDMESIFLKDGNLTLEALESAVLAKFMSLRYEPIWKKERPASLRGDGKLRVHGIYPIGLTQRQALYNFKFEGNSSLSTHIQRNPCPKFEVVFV
Sequence of UniProt P78804 (whole entry, looked up): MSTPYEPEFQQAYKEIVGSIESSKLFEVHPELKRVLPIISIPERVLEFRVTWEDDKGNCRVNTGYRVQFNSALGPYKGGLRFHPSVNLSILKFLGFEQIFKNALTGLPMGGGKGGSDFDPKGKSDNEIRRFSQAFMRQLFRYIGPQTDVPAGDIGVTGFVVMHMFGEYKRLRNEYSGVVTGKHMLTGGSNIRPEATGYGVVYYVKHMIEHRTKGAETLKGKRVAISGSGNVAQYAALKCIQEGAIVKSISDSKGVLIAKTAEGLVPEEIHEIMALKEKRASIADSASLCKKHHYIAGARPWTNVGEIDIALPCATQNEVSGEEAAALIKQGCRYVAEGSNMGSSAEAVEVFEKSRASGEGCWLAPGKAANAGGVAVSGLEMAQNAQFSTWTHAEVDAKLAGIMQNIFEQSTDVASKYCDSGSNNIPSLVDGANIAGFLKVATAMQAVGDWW
Sequence of UniProt Q96C36 (whole entry, unmodified, looked up): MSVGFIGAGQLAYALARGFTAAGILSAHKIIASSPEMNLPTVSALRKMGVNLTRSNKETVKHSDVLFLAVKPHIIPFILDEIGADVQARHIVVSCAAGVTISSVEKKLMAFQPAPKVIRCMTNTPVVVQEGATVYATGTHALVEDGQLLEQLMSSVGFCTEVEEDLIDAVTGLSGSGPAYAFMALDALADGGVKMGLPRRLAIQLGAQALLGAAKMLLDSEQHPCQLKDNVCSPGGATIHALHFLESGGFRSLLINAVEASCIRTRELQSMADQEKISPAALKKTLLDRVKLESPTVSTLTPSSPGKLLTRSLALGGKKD
Sequence of UniProt Q9FMF5 (whole entry, looked up): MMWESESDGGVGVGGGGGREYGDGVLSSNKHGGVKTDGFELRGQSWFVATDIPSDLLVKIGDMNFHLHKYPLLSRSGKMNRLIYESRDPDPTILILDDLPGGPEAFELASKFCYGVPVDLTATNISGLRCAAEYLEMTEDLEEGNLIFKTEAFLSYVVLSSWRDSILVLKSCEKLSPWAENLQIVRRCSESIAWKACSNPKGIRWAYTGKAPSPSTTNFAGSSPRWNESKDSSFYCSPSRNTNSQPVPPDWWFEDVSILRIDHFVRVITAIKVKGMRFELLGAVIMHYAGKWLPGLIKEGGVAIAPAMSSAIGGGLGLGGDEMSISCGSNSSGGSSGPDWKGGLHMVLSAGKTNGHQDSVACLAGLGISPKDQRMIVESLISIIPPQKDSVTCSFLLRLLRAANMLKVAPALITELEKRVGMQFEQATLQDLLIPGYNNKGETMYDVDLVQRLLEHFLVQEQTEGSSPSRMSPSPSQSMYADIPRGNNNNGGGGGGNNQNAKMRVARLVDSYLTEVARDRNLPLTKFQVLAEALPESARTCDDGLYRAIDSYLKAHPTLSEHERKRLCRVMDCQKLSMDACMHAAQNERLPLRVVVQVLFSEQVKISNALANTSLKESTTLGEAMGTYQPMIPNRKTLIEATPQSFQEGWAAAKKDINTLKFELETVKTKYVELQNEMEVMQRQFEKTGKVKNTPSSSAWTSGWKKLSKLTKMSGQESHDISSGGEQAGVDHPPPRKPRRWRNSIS

| Substance | substrate | conditions | Km |
| --- | --- | --- | --- |
| B1 | N[C@@H](CC(=O)O)C(=O)O | pH 7.5, 25 °C, with: PMP 20 µM | 1800 µM |
| enzyme (Enterococcus faecium, UniProt A0A132Z3A5) | Nc1ncnc2c1ncn2[C@@H]1O[C@H](COP(=O)(O)OP(=O)(O)OP(=O)(O)O)[C@@H](O)[C@H]1O | pH 7.4, 24 °C, apparent | 26.5 µM |
| enzyme (Saccharina japonica, UniProt A0A097IUE3) | C=C(OP(=O)(O)O)C(=O)O | pH 6.5, 25 °C, with: 2 mM ADP | 1100 µM |
| B2 (bxlB) | O=[N+]([O-])c1ccc(O[C@@H]2OC[C@@H](O)[C@H](O)[C@H]2O)cc1 | pH 5, 50 °C | 970 µM |
| enzyme Y41F (Homo sapiens, UniProt Q08623) | O=c1[nH]cc([C@@H]2O[C@H](COP(=O)(O)O)[C@@H](O)[C@H]2O)c(=O)[nH]1 | pH 7, 25 °C | 2.7 µM |
| B3 (bjaI) | CC(C)CC(=O)SCCNC(=O)CCNC(=O)[C@H](O)C(C)(C)COP(=O)(O)OP(=O)(O)OC[C@H]1O[C@@H](n2cnc3c(N)ncnc32)[C@H](O)[C@@H]1OP(=O)(O)O | pH 7.3, with: 30 µM DCPIP, 331 µM SAM | 2.1 µM |
| enzyme (UniProt A0A6P1VWL4) | C[C@@H]1O[C@@H](Oc2ccc([N+](=O)[O-])cc2Cl)[C@@H](O)[C@H](O)[C@@H]1O | pH 6.4, 37 °C | 1830 µM |
| RPT3 (Arabidopsis thaliana, UniProt Q9FMF5) | Nc1nc2c(ncn2[C@@H]2O[C@H](COP(=O)(O)OP(=O)(O)OP(=O)(O)O)[C@@H](O)[C@H]2O)c(=O)[nH]1 | pH 7.5, 30 °C | 14300 µM |
| B4 (enzyme) | CCC(=O)O | pH 7, 30 °C, apparent | 2300 µM |
| B5 (enzyme) | O=C(O)[C@@H](O)[C@@H](O)[C@H](O)[C@H](O)CO | pH 8.5, with: NAD | 630 µM |
| enzyme (Schizosaccharomyces pombe, UniProt P78804) | NC(=O)C1=CN([C@@H]2O[C@H](COP(=O)(O)OP(=O)(O)OC[C@H]3O[C@@H](n4cnc5c(N)ncnc54)[C@H](OP(=O)(O)O)[C@@H]3O)[C@@H](O)[C@H]2O)C=CC1 | pH 7, 30 °C, apparent | 53 µM |
| HNL E79H/H103V/K236M/N104A/T11G (Hevea brasiliensis) | CC(=O)Oc1ccc([N+](=O)[O-])cc1 | pH 7.2, 22 °C | 420 µM |
| B6 (enzyme) | COc1cccc(OC)c1O | pH 3.7, 24 °C, with: CuSO4 1 mM | 3000 µM |
| PYCR2 (Homo sapiens, UniProt Q96C36) | O=C(O)[C@@H]1CCC=N1 | pH 7.5, 37 °C, apparent, with: NADH 500 µM | 1510 µM |
| enzyme (Arabidopsis thaliana, UniProt Q9LJK1) | C[C@@H]1O[C@H](OP(=O)(O)OP(=O)(O)OC[C@H]2O[C@@H](n3cnc4c(=O)[nH]c(N)nc43)[C@H](O)[C@@H]2O)[C@@H](O)[C@H](O)[C@@H]1O | pH 6.5, 30 °C | 100 µM |
| gdh E198G/N97F (Bacillus subtilis) | NC(=O)c1ccc[n+]([C@@H]2O[C@H](COP(=O)(O)OP(=O)(O)OC[C@H]3O[C@@H](n4cnc5c(N)ncnc54)[C@H](O)[C@@H]3O)[C@@H](O)[C@H]2O)c1 | pH 7, 55 °C | 170 µM |
| dxs (Escherichia coli, UniProt P77488) | O=C(CO)[C@@H](O)[C@H](O)COP(=O)(O)O | with: ThDP | 38 µM |
| spt R378K (Sphingomonas paucimobilis) | CCCCCCCCCCCC(=O)SCCNC(=O)CCNC(=O)[C@H](O)C(C)(C)COP(=O)(O)OP(=O)(O)OC[C@H]1O[C@@H](n2cnc3c(N)ncnc32)[C@H](O)[C@@H]1OP(=O)(O)O | with: PLP | 560 µM |
| B7 (UGT1A3) | O=c1cc(C(F)(F)F)c2ccc(O)cc2o1 | 37 °C, not purified | 58 µM |
| B8 (enzyme) | N[C@@H](CS)C(=O)O | pH 7.5, 37 °C | 5000 µM |

Some of these lines once more:
| Substance | substrate | conditions | Km |
| --- | --- | --- | --- |
| enzyme Y41F (Homo sapiens, UniProt Q08623) | O=c1[nH]cc([C@@H]2O[C@H](COP(=O)(O)O)[C@@H](O)[C@H]2O)c(=O)[nH]1 | pH 7, 25 °C | 2.7 µM |
| B3 (bjaI) | CC(C)CC(=O)SCCNC(=O)CCNC(=O)[C@H](O)C(C)(C)COP(=O)(O)OP(=O)(O)OC[C@H]1O[C@@H](n2cnc3c(N)ncnc32)[C@H](O)[C@@H]1OP(=O)(O)O | pH 7.3, with: 30 µM DCPIP, 331 µM SAM | 2.1 µM |
| enzyme (UniProt A0A6P1VWL4) | C[C@@H]1O[C@@H](Oc2ccc([N+](=O)[O-])cc2Cl)[C@@H](O)[C@H](O)[C@@H]1O | pH 6.4, 37 °C | 1830 µM |
